Measured values of several laboratories.
Protocols differ between the studies behind these lines. Values joined by “and” are separate records of one study, mostly repeats; a detail may differ. ± marks the error that the study gave.
TDP1: Tyrosyl-DNA phosphodiesterase 1 (TDP1, Homo sapiens, UniProt Q9NUW8)
Chain of UniProt Q9NUW8 (whole entry, looked up): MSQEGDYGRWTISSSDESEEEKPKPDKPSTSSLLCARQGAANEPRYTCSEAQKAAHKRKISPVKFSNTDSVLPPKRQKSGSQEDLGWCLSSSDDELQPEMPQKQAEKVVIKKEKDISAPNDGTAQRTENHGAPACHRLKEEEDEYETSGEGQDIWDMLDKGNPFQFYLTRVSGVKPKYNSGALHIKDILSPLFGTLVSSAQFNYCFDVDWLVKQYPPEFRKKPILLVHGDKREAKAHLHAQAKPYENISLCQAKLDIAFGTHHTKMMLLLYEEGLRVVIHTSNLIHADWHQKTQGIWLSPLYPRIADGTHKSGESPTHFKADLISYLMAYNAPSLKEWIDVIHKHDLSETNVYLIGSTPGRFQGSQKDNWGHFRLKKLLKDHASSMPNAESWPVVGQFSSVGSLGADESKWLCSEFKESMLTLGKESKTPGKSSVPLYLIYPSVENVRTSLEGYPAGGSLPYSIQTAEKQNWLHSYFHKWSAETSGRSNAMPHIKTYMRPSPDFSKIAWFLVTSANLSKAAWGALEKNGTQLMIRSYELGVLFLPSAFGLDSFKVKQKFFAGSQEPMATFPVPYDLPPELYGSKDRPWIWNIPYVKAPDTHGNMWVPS
glpG: Rhomboid protease GlpG (glpG, Escherichia coli, UniProt P09391)
Chain of UniProt P09391 (whole entry, looked up): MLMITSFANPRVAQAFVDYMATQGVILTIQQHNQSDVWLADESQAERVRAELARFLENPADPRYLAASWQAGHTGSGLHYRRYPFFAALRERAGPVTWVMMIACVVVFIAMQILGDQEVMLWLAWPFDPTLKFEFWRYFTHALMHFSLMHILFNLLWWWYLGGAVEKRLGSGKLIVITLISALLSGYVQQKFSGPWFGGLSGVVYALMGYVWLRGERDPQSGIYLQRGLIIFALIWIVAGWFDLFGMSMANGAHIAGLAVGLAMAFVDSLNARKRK
CASP6: Caspase-6 (CASP6, Homo sapiens, UniProt P55212)
Chain of UniProt P55212 (whole entry, looked up): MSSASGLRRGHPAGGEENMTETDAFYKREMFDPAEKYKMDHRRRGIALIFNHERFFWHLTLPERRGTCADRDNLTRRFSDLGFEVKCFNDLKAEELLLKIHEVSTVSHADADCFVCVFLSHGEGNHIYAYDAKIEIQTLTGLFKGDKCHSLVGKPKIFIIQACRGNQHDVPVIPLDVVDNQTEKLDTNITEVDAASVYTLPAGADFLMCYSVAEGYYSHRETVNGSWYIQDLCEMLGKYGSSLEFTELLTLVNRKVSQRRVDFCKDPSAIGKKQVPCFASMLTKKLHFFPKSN
Uncharacterized protein: Uncharacterized protein (Trypanosoma brucei brucei, UniProt Q386Q8)
Gria1: Glutamate receptor 1 (Gria1, Rattus norvegicus, UniProt P19490)
Chain of UniProt P19490 (whole entry, looked up): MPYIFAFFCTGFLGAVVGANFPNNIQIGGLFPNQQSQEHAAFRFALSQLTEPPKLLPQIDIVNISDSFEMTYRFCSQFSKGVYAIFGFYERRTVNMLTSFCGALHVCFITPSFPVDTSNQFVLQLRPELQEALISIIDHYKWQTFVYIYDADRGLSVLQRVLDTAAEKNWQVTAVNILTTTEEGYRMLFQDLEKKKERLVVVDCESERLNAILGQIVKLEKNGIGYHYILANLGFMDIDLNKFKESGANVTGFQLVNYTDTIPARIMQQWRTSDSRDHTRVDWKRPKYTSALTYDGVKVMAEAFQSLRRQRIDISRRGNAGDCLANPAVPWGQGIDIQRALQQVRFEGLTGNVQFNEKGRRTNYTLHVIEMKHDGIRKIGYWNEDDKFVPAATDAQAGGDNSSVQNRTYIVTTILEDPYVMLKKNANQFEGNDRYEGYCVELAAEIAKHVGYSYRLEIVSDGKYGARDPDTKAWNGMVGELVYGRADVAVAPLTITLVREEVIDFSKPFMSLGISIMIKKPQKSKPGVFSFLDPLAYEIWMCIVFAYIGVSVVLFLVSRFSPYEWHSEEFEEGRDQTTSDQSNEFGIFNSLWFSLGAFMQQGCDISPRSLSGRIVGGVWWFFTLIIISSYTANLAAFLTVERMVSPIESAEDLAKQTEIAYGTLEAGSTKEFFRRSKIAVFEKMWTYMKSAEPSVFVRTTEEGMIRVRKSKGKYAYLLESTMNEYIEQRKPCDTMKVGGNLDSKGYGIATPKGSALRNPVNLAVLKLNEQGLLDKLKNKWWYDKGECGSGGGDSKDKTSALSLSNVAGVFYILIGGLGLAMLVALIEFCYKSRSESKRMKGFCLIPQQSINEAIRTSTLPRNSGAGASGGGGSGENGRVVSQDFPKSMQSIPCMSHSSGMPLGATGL
T1: dsDNA, duplex; chain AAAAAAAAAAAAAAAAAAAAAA; chain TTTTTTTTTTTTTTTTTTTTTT
Chain of UniProt P46089 (whole entry, looked up): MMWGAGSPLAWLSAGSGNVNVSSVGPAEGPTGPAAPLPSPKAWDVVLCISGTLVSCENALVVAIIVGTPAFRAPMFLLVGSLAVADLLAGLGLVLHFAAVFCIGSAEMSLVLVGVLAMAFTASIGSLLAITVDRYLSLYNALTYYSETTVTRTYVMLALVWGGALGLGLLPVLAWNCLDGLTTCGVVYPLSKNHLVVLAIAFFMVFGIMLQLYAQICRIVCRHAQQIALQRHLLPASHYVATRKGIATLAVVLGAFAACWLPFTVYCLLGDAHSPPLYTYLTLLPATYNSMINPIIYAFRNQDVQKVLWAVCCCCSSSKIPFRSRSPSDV
Chain of UniProt P23458 (whole entry, looked up): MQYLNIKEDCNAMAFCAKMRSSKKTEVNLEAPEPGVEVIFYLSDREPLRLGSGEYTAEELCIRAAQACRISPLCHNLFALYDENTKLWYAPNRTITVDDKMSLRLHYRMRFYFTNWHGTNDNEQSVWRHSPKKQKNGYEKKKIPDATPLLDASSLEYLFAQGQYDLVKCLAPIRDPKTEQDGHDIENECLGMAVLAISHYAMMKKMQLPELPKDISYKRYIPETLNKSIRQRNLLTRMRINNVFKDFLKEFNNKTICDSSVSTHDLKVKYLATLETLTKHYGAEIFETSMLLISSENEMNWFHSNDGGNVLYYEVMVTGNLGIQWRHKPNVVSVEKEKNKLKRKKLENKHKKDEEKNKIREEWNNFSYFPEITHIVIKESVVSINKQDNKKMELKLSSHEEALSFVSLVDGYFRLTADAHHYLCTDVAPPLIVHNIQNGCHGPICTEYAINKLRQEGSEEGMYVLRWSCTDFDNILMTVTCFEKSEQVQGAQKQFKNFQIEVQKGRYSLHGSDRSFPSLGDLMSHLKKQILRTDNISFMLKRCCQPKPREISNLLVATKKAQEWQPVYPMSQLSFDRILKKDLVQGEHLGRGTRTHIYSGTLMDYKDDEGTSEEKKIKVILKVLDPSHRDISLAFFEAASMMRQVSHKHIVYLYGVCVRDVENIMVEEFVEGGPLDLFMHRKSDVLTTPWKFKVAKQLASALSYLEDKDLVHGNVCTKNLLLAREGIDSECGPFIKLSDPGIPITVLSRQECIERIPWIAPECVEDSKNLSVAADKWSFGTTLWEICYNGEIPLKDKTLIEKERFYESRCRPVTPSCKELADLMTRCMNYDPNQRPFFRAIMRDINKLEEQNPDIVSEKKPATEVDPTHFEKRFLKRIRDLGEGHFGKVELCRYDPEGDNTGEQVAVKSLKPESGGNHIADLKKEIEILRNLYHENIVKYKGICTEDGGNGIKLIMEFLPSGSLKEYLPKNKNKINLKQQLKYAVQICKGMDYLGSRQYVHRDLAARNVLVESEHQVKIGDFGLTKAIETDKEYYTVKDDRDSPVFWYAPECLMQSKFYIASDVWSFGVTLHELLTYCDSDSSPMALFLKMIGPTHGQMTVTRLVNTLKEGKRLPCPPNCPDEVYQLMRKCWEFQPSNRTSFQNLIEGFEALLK
Chain of UniProt P51648 (whole entry, looked up): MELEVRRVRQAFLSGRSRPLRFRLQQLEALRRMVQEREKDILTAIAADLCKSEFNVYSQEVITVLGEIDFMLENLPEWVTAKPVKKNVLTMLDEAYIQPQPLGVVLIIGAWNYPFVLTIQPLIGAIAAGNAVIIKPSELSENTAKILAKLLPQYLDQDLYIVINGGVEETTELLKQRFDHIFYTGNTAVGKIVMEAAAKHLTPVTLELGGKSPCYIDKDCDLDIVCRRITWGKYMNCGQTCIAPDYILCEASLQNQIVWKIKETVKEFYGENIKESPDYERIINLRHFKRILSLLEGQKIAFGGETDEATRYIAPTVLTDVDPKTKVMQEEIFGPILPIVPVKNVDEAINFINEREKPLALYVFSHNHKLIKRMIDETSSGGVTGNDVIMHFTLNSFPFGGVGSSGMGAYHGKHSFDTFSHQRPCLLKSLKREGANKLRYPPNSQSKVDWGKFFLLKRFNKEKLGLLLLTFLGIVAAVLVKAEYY
Chain of UniProt Q9BY41 (whole entry, looked up): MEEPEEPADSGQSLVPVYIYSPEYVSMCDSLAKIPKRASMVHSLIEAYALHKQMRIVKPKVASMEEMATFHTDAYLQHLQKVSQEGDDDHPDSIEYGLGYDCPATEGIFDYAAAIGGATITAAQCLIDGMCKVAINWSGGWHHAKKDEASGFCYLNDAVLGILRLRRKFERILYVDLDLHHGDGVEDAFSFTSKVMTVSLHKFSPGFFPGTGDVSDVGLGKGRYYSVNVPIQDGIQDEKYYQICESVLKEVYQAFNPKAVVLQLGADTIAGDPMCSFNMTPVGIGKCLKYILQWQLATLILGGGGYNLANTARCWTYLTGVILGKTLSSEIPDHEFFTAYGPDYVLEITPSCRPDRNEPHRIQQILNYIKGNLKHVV
Chain of UniProt P00698 (whole entry, looked up): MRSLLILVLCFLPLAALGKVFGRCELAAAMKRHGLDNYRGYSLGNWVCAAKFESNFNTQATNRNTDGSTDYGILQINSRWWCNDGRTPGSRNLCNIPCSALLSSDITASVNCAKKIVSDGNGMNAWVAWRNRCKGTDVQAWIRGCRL
Chain of UniProt Q9UKP6 (whole entry, looked up): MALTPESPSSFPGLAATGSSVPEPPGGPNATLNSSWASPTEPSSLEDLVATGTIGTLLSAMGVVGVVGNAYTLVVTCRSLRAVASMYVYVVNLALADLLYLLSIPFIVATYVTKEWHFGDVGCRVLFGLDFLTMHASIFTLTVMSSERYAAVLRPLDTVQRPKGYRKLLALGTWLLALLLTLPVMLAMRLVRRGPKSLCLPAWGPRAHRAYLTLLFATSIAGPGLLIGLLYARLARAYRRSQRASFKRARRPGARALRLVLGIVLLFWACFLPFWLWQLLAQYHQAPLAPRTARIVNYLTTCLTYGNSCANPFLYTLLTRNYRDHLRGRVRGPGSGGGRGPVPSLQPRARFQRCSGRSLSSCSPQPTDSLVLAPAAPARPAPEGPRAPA

C=CCn1c(C)c(C=NOCc2ccc(-c3nc4cc(-c5ccccc5)ccn4c3Nc3ccc(C(=O)O)cc3)cc2)c2ccccc21 (mixture of isomers)  inhibition (TDP1; enzyme activity, inhibitor; 100 µM, unpurified compound): 17.9%
Cc1ccc(S(=O)(=O)N2CC(NC(=O)c3cccc(F)c3)C2=O)cc1 (stereo not shown)  IC50 (glpG; enzyme activity, inhibitor, gel-based chimeric protein substrate): inactive
CC(=O)N[C@@H](CC(=O)O)C(=O)N[C@@H](Cc1ccc2ccccc2c1)C(=O)N[C@@H](C)C(=O)N[C@@H](CC(=O)O)C(=O)COC(=O)c1c(C)cccc1C  kinact/KI (CASP6; enzyme activity, inhibitor): 1600 M⁻¹ s⁻¹
CCCCCCCCCCCCCCCC(=O)OCC(CSC[C@H](N)C(=O)N[C@@H](CO)C(=O)N[C@@H](CCCCN)C(=O)N[C@@H](CCCCN)C(=O)N[C@@H](CCCCN)C(=O)N[C@@H](CCCCN)C(=O)NCCCCCC(=O)N[C@@H](CCCCN)C(=O)N[C@@H](CC(C)C)C(=O)N[C@H](C(=O)N[C@@H](Cc1ccccc1)C(=O)N[C@@H](Cc1ccccc1)C(=O)N[C@@H](Cc1ccc2ccccc2c1)C(=O)O)C(C)C)OC(=O)CCCCCCCCCCCCCCC (stereo partly shown)  fibril diameter (Amyloid-beta precursor protein, fibrillar amyloid-beta (APP, Homo sapiens, UniProt P05067); TEM; 2.0 eq, 8 h, fibril 6, together with: APP 20 µM): 43 nm
O=C1c2sc(-c3ccc(N4CCC(CO)CC4)nc3F)nc2CCN1c1cccnc1  inhibition (UTS2R (Homo sapiens, UniProt Q9UKP6); ligand displacement, radioligand; 1 µM): -2%
CN(C)c1nc(-c2ccccc2)c(C=NOCc2ccc(-c3nc4cc(-c5ccccc5)ccn4c3Nc3ccc(C(=O)O)cc3)cc2)c(=O)o1  inhibition (TDP1; enzyme activity, inhibitor; 100 µM, unpurified compound): 100%
C#CCOC(=O)[C@@]1(C)C=C(C(=O)OC(C)(C)C)C(=O)CC1  normalized kinase activity (MAPK8 (Homo sapiens, UniProt P45983); enzyme activity, D-SENSOR; 1.646 µM, mean of replicates): 0.921
CCCCCCCCCCCCC/C=C/C=O  isoTOP-ABPP competition ratio (NIT1 (Homo sapiens, UniProt Q86X76); competitive isoTOP-ABPP; proteome, soluble, MDA-MB-231; 100 µM, 60 min, together with: iodoacetamide probe; baseline: DMSO over compound-treated, higher = stronger cysteine blockade): 1.3
CC(C)Oc1cc(Cl)ccc1CNc1cc(-c2ccccc2)nc2ncnn12  cAMP luminescence (GPR3 (Homo sapiens, UniProt P46089); cAMP reporter; human cells; 10 nM; higher is more cAMP): 21500 a.u. and 32300 a.u. and 42000 a.u. and 56700 a.u. and 43300 a.u. and 34500 a.u. and 36100 a.u. and 55800 a.u.
CC(=O)N[C@@H](CCC(N)=O)C(=O)N[C@@H](CC(C)C)C(=O)N1CCC[C@H]1C(=O)N[C@@H](CC(=O)O)C(=O)COC(=O)c1c(C)cccc1C  kinact/KI (CASP6; enzyme activity, inhibitor): 600 M⁻¹ s⁻¹
COc1cccc2c(=O)c(CO)coc12  ΔTm (Nicotinamide N-methyltransferase, SAM-bound (NNMT, Homo sapiens, UniProt P40261); differential scanning fluorimetry; 1 mM, together with: 100 µM SAM): 5 °C
CC(/C=C/C(=O)NO)=C\[C@@H](C)C(=O)c1ccc(N(C)C)cc1  binding stoichiometry (HDAC8 (Homo sapiens, UniProt Q9BY41); ITC; Tris-HCl buffer; concentration not given, 278 K): 0.8
c1csc(C2=Nn3c(nnc3C3CCCCC3)SC2)c1  Hill slope (Uncharacterized protein; inhibitor, coupled colorimetric; Trypanosoma brucei): 1.21
CC(=O)C12NC(C)(C)CC1(C)C(=O)C1=C2c2c(c3c4n2C(C)(C)CC2=C4C4(CC(C)(C)NC(C)(C4)C2=O)CC3(C)C)C(=O)C(C)(C)N1 (single isomer, unassigned; (-))  activation (OPRK1 (Homo sapiens, UniProt P41145); cAMP level, agonist, LANCE Ultra cAMP; CHO; 50 µM): 5.65%
CCCCCC=CC=C1C(=O)C=CC1CC=CCCCC(=O)O (stereo not shown)  isoTOP-ABPP competition ratio (Treacle protein (Homo sapiens, UniProt Q13428); competitive isoTOP-ABPP, measured: TCOF1 cysteine peptide; Ramos soluble proteome; 100 µM, together with: iodoacetamide probe; baseline: DMSO over compound-treated, higher = stronger cysteine blockade): 2.3
O=C(O)c1ccc(Nc2c(-c3ccc(CON=Cc4sccc4Cl)cc3)nc3cc(-c4ccccc4)ccn23)cc1  inhibition (TDP1; enzyme activity, inhibitor; 100 µM, unpurified compound): 38.8%
CC(=O)N[C@@H](Cc1ccc(I)cc1)C(=O)N[C@@H](CCC(=O)O)C(=O)N[C@H](C(=O)N[C@@H](CC(=O)O)C(=O)COC(=O)c1c(C)cccc1C)[C@@H](C)O  kinact/KI (CASP6; enzyme activity, inhibitor): 44100 M⁻¹ s⁻¹
COc1ccc(C(=O)CC2(O)C(=O)Nc3ccc(C)cc32)cc1OC (stereo not shown)  Hill slope (Uncharacterized protein; inhibitor, coupled colorimetric; Trypanosoma brucei): -30
O=C(O)c1ccc(Nc2c(-c3ccc(CON=Cc4cc(C(F)(F)F)ccc4F)cc3)nc3cc(-c4ccccc4)ccn23)cc1 (mixture of isomers)  inhibition (TDP1; enzyme activity, inhibitor; 100 µM, unpurified compound): 30.5%
CC(=O)N[C@@H](Cc1ccccc1Cl)C(=O)N[C@@H](CCC(=O)O)C(=O)N[C@@H](C)C(=O)N[C@@H](CC(=O)O)C(=O)COC(=O)c1c(C)cccc1C  kinact/KI (CASP6; enzyme activity, inhibitor): 58400 M⁻¹ s⁻¹
CCCCCC(O)/C=C/C=O (stereo not shown)  isoTOP-ABPP competition ratio (Chromatin accessibility complex protein 1 (CHRAC1, Homo sapiens, UniProt Q9NRG0); competitive isoTOP-ABPP, measured: CHRAC1 cysteine peptide; Ramos soluble proteome; 100 µM, together with: iodoacetamide probe; baseline: DMSO over compound-treated, higher = stronger cysteine blockade): 1.8
C[C@@H](Nc1nc(N[C@H](C)C(F)(F)F)nc(-c2cccc(Cl)n2)n1)C(F)(F)F  maximal inhibition (IDH1 (Homo sapiens, UniProt O75874, R132H); enzyme activity; heterodimer): 100%
CCCCCCOc1ccc(C(=O)OCCN2CC=CCC2)cc1  basal binding (CHRM5 (Homo sapiens, UniProt P08912); membranes; 100 µM, 15 h, no carbachol; baseline: control): 1.1 ± 0.03 fold
Cc1cc(-n2c(C)cc(C=NOCc3ccc(-c4nc5cc(-c6ccccc6)ccn5c4Nc4ccc(C(=O)O)cc4)cc3)c2C)no1  inhibition (TDP1; enzyme activity, inhibitor; 100 µM, unpurified compound): 58.4%
CCCCOc1ccc(C(=O)OCC[N+]2(C)CC=CCC2)cc1 (stereo not shown)  basal binding (CHRM3 (Homo sapiens, UniProt P20309); membranes; 10 µM, 15 h, no carbachol; baseline: control): 1.11 ± 0.05 fold
N#CCCn1cc(C=NOCc2ccc3nc(-c4ccccc4)c(Nc4ccc(C(=O)O)cc4)n3c2)c2ccccc21  inhibition (TDP1; enzyme activity, inhibitor; 100 µM, unpurified compound): 12%
OCC(O)CO  association constant (Lysozyme C (LYZ, Gallus gallus, UniProt P00698); binding, static light scattering; pH 7, 25 °C, together with: NaCl 50 mM): 0.97 M⁻¹
O=C(O)c1ccc(Nc2c(-c3ccccc3)nc3ccc(CON=Cc4sccc4Cl)cn23)cc1 (mixture of isomers)  inhibition (TDP1; enzyme activity, inhibitor; 100 µM, unpurified compound): 49.1%
Cc1cnc2nc1Nc1cccc(c1)COC/C=C/COCc1cc(ccc1OCCN1CCOCC1)N2  remaining binding (JAK1 (Homo sapiens, UniProt P23458); kinase binding panel; concentration not given): 8.5%
CCCCCCCCn1c(CC)c(C)[n+](CCCCCCCC)c1CCC  binding (T1, dsDNA, duplex; competition with EtBr, competitor, EtBr displacement fluorescence; Na+ 50 mM, together with: EtBr): binds
CC1CN(S(=O)(=O)c2ccccc2)C1=O (stereo not shown)  IC50 (glpG; enzyme activity, inhibitor, gel-based chimeric protein substrate): inactive
CC(C)NCCCn1c(Sc2cc3c(cc2I)OCO3)nc2c(N)ncnc21  ΔH (HSP90AA1/HSP90B1 (Homo sapiens, UniProt P07900+P41148, E62I/S52A/Y61L); ITC): -12.3 ± 0.96 kcal/mol
O=C(O)c1ccc(Nc2c(-c3ccc(CON=Cc4cc(O)ccc4O)cc3)nc3cc(-c4ccccc4)ccn23)cc1  inhibition (TDP1; enzyme activity, inhibitor; 100 µM, unpurified compound): 87%
O=C(O)Cc1cc2c(cc1C(=O)c1cccc(Br)c1)OCO2  deactivation time constant (Gria1; whole-cell patch clamp; HEK-293T; concentration not given, together with: glutamate): 6.3 ± 0.3 ms
CC[C@H](C)[C@@H]1NC(=O)[C@H](Cc2ccc(O)cc2)NC(=O)[C@H](Cc2ccccc2)NC(=O)[C@H](Cc2ccccc2)NC(=O)[C@H](Cc2ccccc2)NC(=O)CSC[C@@H](C(=O)N[C@@H](Cc2c[nH]cn2)C(N)=O)NC(=O)[C@H](CC(N)=O)NC(=O)[C@H](Cc2c[nH]c3ccccc23)NC1=O  ΔTm (Bromodomain-containing protein 4, BD1 (BRD4, Homo sapiens, UniProt O60885); thermal stability, DSF; 200 µM): 1.97 °C
C=CC(=O)N1CCCC(n2c(=O)c3ncccc3n(Cc3ccc(Oc4ccccc4)cc3)c2=O)C1 (stereo not shown)  melting temperature (Crk-like protein (Homo sapiens, UniProt P46109); thermal proteome profiling; replicate 1): 54.1 °C
Cc1cc(C)cc(COc2cc3c(cc2OCc2cc(C)cc(C)c2)C2CC(O)(Cc4cn(CCOCCOCCNC(=O)CCCCC5SCC6NC(=O)NC65)nn4)CC(C)N2CC3)c1 (stereo not shown)  SILAC ratio (ALDH3A2 (Homo sapiens, UniProt P51648); biotinylated probe pull-down; 10 µM probe; baseline: heavy over light): 5.35
COC(=O)Cc1cc2c(cc1C(=O)c1cccc(Br)c1)OCO2  deactivation time constant (Gria1; glutamate-evoked current, whole-cell patch clamp; HEK-293T; concentration not given, weighted tau, 1 ms pulse, together with: glutamate): 2.8 ± 0.1 ms
CC(C=CC=C(C)C=CC1=C(C)CCCC1(C)C)=CC=O  Pearson correlation coefficient (Rhodopsin (RHO, Homo sapiens, UniProt P08100, P23H); ER retention, immunostaining co-localization, measured: opsin with calnexin; COS-7 transfected P23H; 1.00 µM): 0.76
CC(C)[C@@H]1NC(=O)[C@H](Cc2ccccc2)NC(=O)CSC[C@@H](C(N)=O)NC(=O)[C@H](CCC(=O)O)NC(=O)[C@H](CO)NC(=O)[C@H](Cc2c[nH]c3cccc(Cl)c23)NC(=O)[C@H](C2CCCCC2)NC(=O)[C@H](C(C)C)NC(=O)[C@H](Cc2ccc(O)cc2)NC(=O)[C@H](CC(=O)O)NC(=O)[C@H](Cc2c[nH]c3ccccc23)NC(=O)[C@H](Cc2ccc(N)nc2)NC(=O)[C@H](Cc2c[nH]c3ccc(Cl)cc23)NC(=O)[C@H](CCC(=O)O)NC1=O  remaining activity (IL1R1 (Homo sapiens, UniProt P14778); IL-8 release, antagonist; A-431; 20 µM, 18 h, together with: IL-1β 5 ng/mL; baseline: untreated): 126%
O=C(O)Cc1cc2c(cc1C(=O)c1cccc(Cl)c1)OCO2  desensitization time constant (Gria1; glutamate-evoked current, whole-cell patch clamp; HEK-293T; concentration not given, weighted tau, 500 ms pulse, together with: glutamate): 0.8 ± 0.1 ms
CN(Cc1cc(C2CC2)on1)C(=O)c1cccc(-c2ccc3c(c2)CCO3)c1  reaction rate (ACS1 (Saccharomyces cerevisiae, UniProt Q01574); enzyme activity, inhibitor, coupled pyrophosphate; 5 µM; higher is more activity): 0.0201 a.u.
O=C1c2sc(-c3ccc(N4CCC(F)C4)nc3F)nc2CCN1c1cccnc1 (stereo not shown)  specific binding (TAR DNA-binding protein 43, aggregated (TARDBP, Homo sapiens, UniProt Q13148); radioligand binding; control brain sarkosyl-insoluble extract; 72.89 nM): 0.069 nM
